Measured values of several laboratories.
Numbered parts are unrelated; each lists some results of a single study.
Sequence of UniProt Q9HBH9 (whole entry, looked up): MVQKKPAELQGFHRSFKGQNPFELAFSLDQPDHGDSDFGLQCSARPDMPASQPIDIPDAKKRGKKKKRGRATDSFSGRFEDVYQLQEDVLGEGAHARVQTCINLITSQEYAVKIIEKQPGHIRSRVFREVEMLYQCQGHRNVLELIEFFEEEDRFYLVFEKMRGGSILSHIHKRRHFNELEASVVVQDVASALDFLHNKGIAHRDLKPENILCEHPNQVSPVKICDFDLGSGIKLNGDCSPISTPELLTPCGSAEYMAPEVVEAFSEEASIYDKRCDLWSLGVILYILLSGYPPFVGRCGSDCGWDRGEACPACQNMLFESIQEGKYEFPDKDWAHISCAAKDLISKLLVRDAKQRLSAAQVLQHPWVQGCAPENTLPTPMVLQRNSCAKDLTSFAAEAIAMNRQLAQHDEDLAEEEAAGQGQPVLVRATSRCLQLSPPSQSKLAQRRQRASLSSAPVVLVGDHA
Sequence of UniProt Q9UK32 (whole entry, looked up): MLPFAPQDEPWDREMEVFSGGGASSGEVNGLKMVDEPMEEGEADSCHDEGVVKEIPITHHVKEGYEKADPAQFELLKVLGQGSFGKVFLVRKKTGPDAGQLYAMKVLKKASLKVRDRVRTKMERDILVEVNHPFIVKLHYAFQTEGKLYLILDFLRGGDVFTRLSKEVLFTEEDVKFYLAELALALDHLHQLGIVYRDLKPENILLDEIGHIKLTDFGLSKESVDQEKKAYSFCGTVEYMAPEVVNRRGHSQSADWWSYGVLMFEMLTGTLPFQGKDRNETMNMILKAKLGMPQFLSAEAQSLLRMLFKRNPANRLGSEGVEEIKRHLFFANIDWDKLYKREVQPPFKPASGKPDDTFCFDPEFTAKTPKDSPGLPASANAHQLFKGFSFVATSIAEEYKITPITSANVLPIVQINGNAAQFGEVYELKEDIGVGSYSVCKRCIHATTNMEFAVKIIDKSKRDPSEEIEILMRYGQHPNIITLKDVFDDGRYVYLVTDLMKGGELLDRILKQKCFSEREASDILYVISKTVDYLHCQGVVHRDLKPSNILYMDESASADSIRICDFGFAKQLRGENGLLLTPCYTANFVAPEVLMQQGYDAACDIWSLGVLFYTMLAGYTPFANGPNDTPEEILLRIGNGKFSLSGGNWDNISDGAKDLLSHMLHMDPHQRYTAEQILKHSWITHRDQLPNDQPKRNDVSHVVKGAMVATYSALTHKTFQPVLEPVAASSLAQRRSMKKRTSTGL
Sequence of UniProt Q86UX6 (whole entry, looked up): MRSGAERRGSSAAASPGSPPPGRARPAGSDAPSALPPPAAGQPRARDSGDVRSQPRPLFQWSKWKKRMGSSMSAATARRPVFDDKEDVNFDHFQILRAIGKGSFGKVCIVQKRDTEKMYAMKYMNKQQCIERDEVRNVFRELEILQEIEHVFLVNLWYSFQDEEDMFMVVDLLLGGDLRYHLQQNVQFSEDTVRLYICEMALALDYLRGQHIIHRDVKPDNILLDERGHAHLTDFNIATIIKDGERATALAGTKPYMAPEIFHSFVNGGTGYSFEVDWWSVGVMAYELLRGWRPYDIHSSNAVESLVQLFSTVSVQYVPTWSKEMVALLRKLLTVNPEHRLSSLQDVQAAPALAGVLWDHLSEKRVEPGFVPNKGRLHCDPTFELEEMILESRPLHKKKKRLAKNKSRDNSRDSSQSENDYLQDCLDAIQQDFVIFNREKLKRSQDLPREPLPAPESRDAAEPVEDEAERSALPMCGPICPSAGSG
Sequence of UniProt Q86YV6 (whole entry, looked up): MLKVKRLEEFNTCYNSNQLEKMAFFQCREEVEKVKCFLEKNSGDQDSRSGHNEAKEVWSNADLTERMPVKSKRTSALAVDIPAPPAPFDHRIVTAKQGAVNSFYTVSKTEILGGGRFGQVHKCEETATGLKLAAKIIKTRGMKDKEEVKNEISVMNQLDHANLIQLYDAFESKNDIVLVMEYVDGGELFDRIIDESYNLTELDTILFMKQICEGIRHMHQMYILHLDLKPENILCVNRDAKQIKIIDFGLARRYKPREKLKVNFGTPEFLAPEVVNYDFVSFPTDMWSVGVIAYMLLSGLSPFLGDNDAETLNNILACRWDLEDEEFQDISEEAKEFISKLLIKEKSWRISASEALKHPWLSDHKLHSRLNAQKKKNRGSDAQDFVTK
Sequence of UniProt Q9H1R3 (whole entry, looked up): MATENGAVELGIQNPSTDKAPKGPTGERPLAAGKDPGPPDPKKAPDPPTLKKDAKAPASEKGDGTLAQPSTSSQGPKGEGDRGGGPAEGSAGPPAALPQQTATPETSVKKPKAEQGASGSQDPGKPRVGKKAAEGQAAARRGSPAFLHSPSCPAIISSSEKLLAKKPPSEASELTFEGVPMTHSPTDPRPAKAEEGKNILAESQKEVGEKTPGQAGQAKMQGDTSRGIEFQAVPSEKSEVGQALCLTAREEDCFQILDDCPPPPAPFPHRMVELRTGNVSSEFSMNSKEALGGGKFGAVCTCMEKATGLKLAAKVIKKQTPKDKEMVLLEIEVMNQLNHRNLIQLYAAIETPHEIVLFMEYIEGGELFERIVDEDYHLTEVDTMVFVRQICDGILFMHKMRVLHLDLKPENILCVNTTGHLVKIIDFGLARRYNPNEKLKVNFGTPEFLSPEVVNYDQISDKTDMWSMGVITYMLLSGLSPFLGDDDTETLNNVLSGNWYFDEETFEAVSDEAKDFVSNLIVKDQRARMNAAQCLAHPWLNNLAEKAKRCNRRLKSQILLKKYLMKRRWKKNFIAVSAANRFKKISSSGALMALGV
Sequence of UniProt P30291 (whole entry, looked up): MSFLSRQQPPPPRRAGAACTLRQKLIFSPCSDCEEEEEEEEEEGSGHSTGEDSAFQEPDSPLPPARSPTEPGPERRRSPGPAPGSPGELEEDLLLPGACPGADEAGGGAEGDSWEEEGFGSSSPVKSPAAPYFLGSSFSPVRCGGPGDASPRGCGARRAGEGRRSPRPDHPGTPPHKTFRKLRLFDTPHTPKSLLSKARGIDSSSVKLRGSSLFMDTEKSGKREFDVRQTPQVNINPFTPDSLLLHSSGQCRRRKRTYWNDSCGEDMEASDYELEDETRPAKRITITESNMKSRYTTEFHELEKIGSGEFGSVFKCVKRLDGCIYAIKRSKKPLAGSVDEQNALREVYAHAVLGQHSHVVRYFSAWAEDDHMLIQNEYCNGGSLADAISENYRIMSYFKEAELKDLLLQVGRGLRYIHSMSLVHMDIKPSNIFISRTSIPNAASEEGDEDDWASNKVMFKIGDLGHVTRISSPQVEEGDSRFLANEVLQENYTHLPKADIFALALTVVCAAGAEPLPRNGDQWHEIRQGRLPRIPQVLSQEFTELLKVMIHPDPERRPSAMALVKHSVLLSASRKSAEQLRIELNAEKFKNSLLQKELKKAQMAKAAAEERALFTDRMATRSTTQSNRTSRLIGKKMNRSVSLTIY
Sequence of UniProt P33981 (whole entry, looked up): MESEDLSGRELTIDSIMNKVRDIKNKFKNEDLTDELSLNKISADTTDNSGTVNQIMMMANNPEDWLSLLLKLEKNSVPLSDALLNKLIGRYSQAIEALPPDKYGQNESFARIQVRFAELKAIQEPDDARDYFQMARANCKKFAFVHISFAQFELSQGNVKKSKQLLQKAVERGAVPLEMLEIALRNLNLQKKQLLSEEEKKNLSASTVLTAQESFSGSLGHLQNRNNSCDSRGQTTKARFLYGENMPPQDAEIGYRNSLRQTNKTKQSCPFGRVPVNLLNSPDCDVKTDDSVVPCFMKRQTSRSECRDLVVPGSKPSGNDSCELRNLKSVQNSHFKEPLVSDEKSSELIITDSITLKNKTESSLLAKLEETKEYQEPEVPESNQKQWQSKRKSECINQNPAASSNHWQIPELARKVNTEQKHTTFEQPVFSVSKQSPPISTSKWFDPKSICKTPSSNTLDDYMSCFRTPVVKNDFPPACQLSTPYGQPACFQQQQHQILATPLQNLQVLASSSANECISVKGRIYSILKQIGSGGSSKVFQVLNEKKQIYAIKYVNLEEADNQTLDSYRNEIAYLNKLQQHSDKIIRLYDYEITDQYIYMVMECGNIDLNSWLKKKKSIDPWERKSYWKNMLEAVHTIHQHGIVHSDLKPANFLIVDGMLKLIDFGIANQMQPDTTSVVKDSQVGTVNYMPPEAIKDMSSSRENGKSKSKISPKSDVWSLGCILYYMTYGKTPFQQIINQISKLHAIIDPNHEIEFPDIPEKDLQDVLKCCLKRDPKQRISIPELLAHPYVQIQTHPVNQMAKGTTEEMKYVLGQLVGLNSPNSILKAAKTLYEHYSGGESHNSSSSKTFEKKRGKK

Block 1
Target: Tyrosine-protein kinase Fer (FER, Homo sapiens, UniProt P16591)
Sequence of UniProt P16591 (whole entry, looked up): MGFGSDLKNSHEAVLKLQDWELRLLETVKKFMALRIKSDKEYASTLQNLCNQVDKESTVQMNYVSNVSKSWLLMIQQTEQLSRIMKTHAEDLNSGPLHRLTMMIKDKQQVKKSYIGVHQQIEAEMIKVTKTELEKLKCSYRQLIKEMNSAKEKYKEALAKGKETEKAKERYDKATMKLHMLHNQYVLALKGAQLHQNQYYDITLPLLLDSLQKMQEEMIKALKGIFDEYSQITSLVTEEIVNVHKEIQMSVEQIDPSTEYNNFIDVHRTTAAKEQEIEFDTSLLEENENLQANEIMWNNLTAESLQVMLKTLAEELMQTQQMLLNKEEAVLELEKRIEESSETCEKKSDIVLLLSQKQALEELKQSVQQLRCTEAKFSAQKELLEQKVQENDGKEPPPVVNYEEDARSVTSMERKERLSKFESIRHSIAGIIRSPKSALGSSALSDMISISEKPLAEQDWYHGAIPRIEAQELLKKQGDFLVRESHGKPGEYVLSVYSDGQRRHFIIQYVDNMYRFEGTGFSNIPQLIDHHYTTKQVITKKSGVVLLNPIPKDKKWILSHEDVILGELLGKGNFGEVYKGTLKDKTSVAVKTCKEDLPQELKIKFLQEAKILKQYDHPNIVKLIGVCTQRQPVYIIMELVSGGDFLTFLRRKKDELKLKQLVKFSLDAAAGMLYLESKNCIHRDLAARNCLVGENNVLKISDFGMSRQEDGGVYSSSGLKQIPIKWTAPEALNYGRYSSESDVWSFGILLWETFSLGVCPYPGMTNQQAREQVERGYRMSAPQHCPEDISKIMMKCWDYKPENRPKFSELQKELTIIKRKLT
Read-out: enzyme activity
Action: inhibitor
Concentration: 0.5 µM
Reference: control
SMILES | remaining activity
NC(=O)c1cccc(-c2cc(Nc3ccc(OC(F)(F)F)cc3)ncn2)c1 | 105%
O=C1c2ccccc2-c2nc3nnnn3nc21 | 89.1%
O=C(O)/C=C/c1cc(Br)c(Br)c(Br)c1Br | 96.6%
CC(C)n1cnc2c(Nc3cccc(Cl)c3)nc(NCCO)nc21 | 79.5%
CCCCc1c(-c2ccc(O)cc2)[nH]c2nccnc12 | 55.6%
CNc1cc2c(Nc3cccc(Br)c3)ncnc2cn1 | 97.1%
c1cc(-c2cnn3cc(-c4ccc(OCCN5CCCCC5)cc4)cnc23)ccn1 | 93.3%
CC(C)(C)c1nc2c3cc[nH]c(=O)c3c3cc(F)ccc3c2[nH]1 | 34%
O=Nc1c(-c2c(O)[nH]c3ccccc23)[nH]c2ccccc12 | 67.8%
CCN(CC)CCCCN1c2ccccc2Oc2ccc(Cl)cc21 | 102%
O=c1c(-c2ccc(F)cc2)c(-c2ccncc2)[nH]n1-c1ccc(Cl)cc1 | 94.3%

Block 2
Host: mouse
Sample: microsomes or S9
Concentration: 2 µM
Time: 0.5 h
SMILES | remaining compound
Cc1cc(C)c(S(=O)(=O)N(C)C2(C)CCS(=O)(=O)C2)c(C)c1 (stereo not drawn) | 0.747%
CC(C)(C)c1cc(-c2nc3c4c(ncn3n2)CCC4)n[nH]1 | 39.1%
CCOC(=O)CCCc1nc2cc(N)ccc2n1C | 56.1%
Cn1c(=O)oc2cc(S(=O)(=O)N3CCC4(CC3)Nc3ccccc3-n3cccc34)ccc21 | > 99.9%
CCc1cc2c(cc3c(=O)n(CC(=O)NCC(C)c4ccccc4)nc(CC)n32)s1 (stereo not drawn) | 0.0722%
CN(C)S(=O)(=O)c1cc(C(=O)Nc2ccc(Br)cc2)c(Cl)cc1Cl | 4.93%
CCCn1c2c(c(O)c(C(=O)OCC)c1=O)CCCC2 | 0.0434%
COc1ccc2c(cc(C(=O)Nc3ccccc3OCC3CCCCO3)n2C)c1OC (stereo not drawn) | 8.61%

Block 3
Cell line: HaCaT
Concentration: 100 µM
Time: 60 h
SMILES | viability [%]
Cc1nc(C)c(Cl)c(O)c1Cl | 110
O=C(O)c1ccc(S(=O)(=O)N(Cl)Cl)cc1 | 134
COc1ccc(NS(=O)(=O)c2ccc(N)cc2)nn1 | 84
Nc1c(CC(=O)O)cccc1C(=O)c1ccccc1 | 143
Cc1cccc(Nc2ccncc2S(=O)(=O)NC(=O)NC(C)C)c1 | 134
COc1c2occc2cc2ccc(=O)oc12 | 75.9
Cc1cc2c(cc1S(N)(=O)=O)S(=O)(=O)CCC2 | 148
CC(C)NCC(O)COc1cccc2[nH]ccc12 (stereo not drawn) | 134
O=[N+]([O-])c1cncn1CCN1CCOCC1 | 134
CCOC(=O)[C@H](CCc1ccccc1)N[C@@H](C)C(=O)N1CCC[C@H]1C(=O)O | 152
CC1(C)O[C@@H]2C[C@H]3[C@@H]4CCC5=CC(=O)C=C[C@]5(C)[C@@]4(F)[C@@H](O)C[C@]3(C)[C@]2(C(=O)CO)O1 | 142

Block 4
SMILES: Cc1cc(-n2nc(Cc3cc(F)cc(C(F)(F)F)c3)nc2C)ccc1C(N)=O
Read-out: cell-free assay
Method: competition with immobilised ligand
Concentration: 1 µM
target | remaining binding
STK32C (Homo sapiens, UniProt Q86UX6) | 100%
SIK2 (Homo sapiens, UniProt Q9H0K1) | 100%
NEK3 (Homo sapiens, UniProt P51956) | 100%
MKNK2 (Homo sapiens, UniProt Q9HBH9) | 100%
STK16 (Homo sapiens, UniProt O75716) | 91%
WEE1 (Homo sapiens, UniProt P30291) | 100%
FLT3 (Homo sapiens, UniProt P36888, D835V/ITD) | 100%
AKT2 (Homo sapiens, UniProt P31751) | 100%
MAP3K15 (Homo sapiens, UniProt Q6ZN16) | 100%
EGFR (Homo sapiens, UniProt P00533, T790M) | 94%
Non-receptor tyrosine-protein kinase TYK2, JH1 (TYK2, Homo sapiens, UniProt P29597) | 100%
MYLK4 (Homo sapiens, UniProt Q86YV6) | 100%
MYLK2 (Homo sapiens, UniProt Q9H1R3) | 91%
Ribosomal protein S6 kinase alpha-6, C-terminal kinase domain (RPS6KA6, Homo sapiens, UniProt Q9UK32) | 100%
TTK (Homo sapiens, UniProt P33981) | 90%

For quick reference, copied from above (block 3):
SMILES | viability [%]
COc1ccc(NS(=O)(=O)c2ccc(N)cc2)nn1 | 84
CC(C)NCC(O)COc1cccc2[nH]ccc12 (stereo not drawn) | 134
CCOC(=O)[C@H](CCc1ccccc1)N[C@@H](C)C(=O)N1CCC[C@H]1C(=O)O | 152
